Assay results from different studies.
Every numbered part comes from another study and shows a few of its results, in no order.

Study 1
Target: RNA binding protein fox-1 homolog 2, RRM domain, GST-SBP tag (RBFOX2, Homo sapiens, UniProt O43251-10, residues 100-194)
Technique: RNA Bind-n-Seq
Molecule type: RNA
Medium: in vitro
Tested at: 365 nM
Notes: natural RNA segment, single round, ends assumed
Relative to: no-protein control
Reading: higher = stronger binding
Constant ends, left off below: GGGAGUUCUACAGUCCGACGAUC … UGGAAUUCUCGGGUGCCAA
Target sequence (chain): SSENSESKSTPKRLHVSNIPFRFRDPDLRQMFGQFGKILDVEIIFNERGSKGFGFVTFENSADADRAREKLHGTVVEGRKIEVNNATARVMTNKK
Sequence	RBNS enrichment (R)
UAUGUAGCCAGAUUACUUAAAUCUCAGAAUUACUAAGCAUGUGGCAUAAAUUUGGAGAAAAUAAUAUGACUAGAAAAAUUAGUGUUAUAUUGGGUGUGAGAAAAGACUGU	12.9
UAUGGUUAAACUGUAAAUCUUAUGUUUACAAAAAUACUGUAAUCUUCAGGAAAUCACUGUAUUAGGAAUGUGCAAUGACUUAUAUAAAUAAAGCCAUUUUUUGAAACUGC	0.557
GUUCGAUGUUUUCAAGUGAGAAAGAGGAAUGUAGUAUGCUUUGGCAUAGUUUGGGAGUGGAGAAUACAGACAUUAUCAGCAGUGACAAAUCACAUAGCUUCAAAAACUCC	0.398
CUGCAGUGGAAUGGAGAGGAAAAUACUUCUAGGCAAGCAGCUAGACUGGUGAAUUGGGGGAAAUAGAAGGAACUAGUAACUGAGACUCCUCCAGCCUCCUCCCUAUUGGA	0.487
AUAUUCCAUCGUUACAGGAUAGCGUUCGGUACACAGUGGCGGGUUUCUUUAGCUGCUGUGUUUAUUCUCAUUCCUCACACAUGCCUUUAAGUGCAUUGGACUCCAGGAGA	0.287
UGAAUACCAGGAUUGACUGCAUCCCUUUAAAGAAGUUUUAUGUCCCUGACUCUGGCUAAAAUUAUCUAAUUUCCAGAUGCUUUUGUAGAUGACUGAAGUAUUUGUGAGCC	0.764
AUCUCCAUCUGUCAACAGGGGCGUGAGGUCCCAGGAAGUGGCCAAAAGCUAGACAGAUCCCCGUUCCUGACAUCACAGCAGCCUCCAACACAAGGCUCCAAGACCUAGGC	0.369
UCUUUAAGACAGUGCUAGAGUAGAACACGGGGCCUGUGCAUAACAAACGCCCUACUUCUAAGCUCGUCCUUAGUAGCCCAGGCUGGUCUAGAACCUCUGGUCUUCCUUUC	0.272
AGAUAAUCUUAAUGACUAUUUUGGCAUUUAUAAAUAGAAAUGAUUAUGGACUUUGAUCUGCCAUACGGAGGUUCGGAACCUGGAGAACGGCUGUGAUAAGUAGGUUUUGA	0.51
CACAAUCGUGCAUAGAAUUGCCUCAAGUCCUGGUGAGAGAGAUGCCGUGGUACUUUUCCAUUUAGAUUCAAAUGGAGCUAAAAUUAAGAGUUUUAUGAGCUGUUAAGAAU	0.418
GUCCCACAACACUGCCAAAAAUCUGUGUAUGUGCCAUUGGGUGGGGCAGCCCCAAGCCUCCUGGGGAGGCAGGGCAAAAACAGGUGCCCUCAUCGUGGUCUGUGCCAUGU	1.53
GUAGUUAAGGGGCAAAAGUCCAUUCUCAUUUGGUCCAUUAGUUCCAGCAAUUGAAAUUUAUGUGAAUUAUUUUGAUUGUAGAAGCACUAUAAUAUGUGCUGAAACUAAAU	0.239

Study 2
Target: Histone acetyltransferase KAT6A, winged helix 1, GST fusion (KAT6A, Homo sapiens, UniProt Q92794, residues 1-85)
Technique: protein binding microarray
Molecule type: double-stranded DNA, one strand shown
Medium: in vitro
Tested at: not given
Notes: 8-mer, flanks averaged, mean of 2 arrays, mostly near background
Relative to: not given
Reading: higher = stronger binding
Construct (chain): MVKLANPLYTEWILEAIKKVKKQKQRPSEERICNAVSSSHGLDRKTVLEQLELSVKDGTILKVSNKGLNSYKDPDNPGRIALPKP
Sequence	E-score
ATCGGCGC	0.366
CCTATTAA	-0.223
CACCATCA	-0.155
AGTCGTTC	-0.158
ATGCGTCA	0.0822
TATGTCGA	-0.122
ACGCCCCC	0.15
CGACGTGC	0.202
CCCCATCC	-0.117
TGACTCAA	-0.0838
AACTTTCT	-0.0562
AGAAGGAG	-0.0871
TACAACAA	-0.235
AATTAAGA	-0.19
CTCAATTC	-0.179
CTGATTGA	-0.174
AGTCCTCG	-0.283
CCGGTACC	0.29
CCTTACAC	-0.0166
CGAGGACA	0.075
AATGTCTA	-0.103
ACCTTTGG	-0.0891
CGTATGAC	0.0232
AGCGGCGC	0.427

Study 3
Target: Interferon regulatory factor 5, full length, phosphomimetic (IRF5, Homo sapiens, UniProt Q13568-2, residues 1-514, K96S/S451D/S453D/S456D/S462D)
Technique: protein-binding microarray
Molecule type: double-stranded DNA, one strand shown
Medium: in vitro
Tested at: 250 nM
Notes: 60-bp whole probe
Added: salmon DNA 0.4 mg/ml
Relative to: random background probes
Reading: higher = stronger binding
Constant ends, left off below: GCCTAGCAC … GTCTTGATTCGCTTGACGCTGCTG
Sequence	log fluorescence
TCAATCTTCATTGTCATACTGTGCTAG	0.537 z-score
GACGGTATCGCTTTCGGGACGTGCTAG	6.92 z-score
GACGGTTTCCTCTCCCTGACGTGCTAG	0.437 z-score
TCATATTAAAATTTCATACTGTGCTAG	1.28 z-score
GACTGACTGGACACTGGGGACGTGCTA	-0.294 z-score
TTAGGTCTCGTTCTCGGTTAGTGCTAG	0.762 z-score
GACGAACTGGGGTGTCGAGACGTGCTA	-0.527 z-score
GACGGTATCGGTATCGAGACGTGCTAG	6.52 z-score
TCAAGTTTTAATAACACACTGTGCTAG	0.214 z-score
GACGGTTTCCCACTGCTGACGTGCTAG	0.102 z-score
TTAGAACTTAGACTGGATTAGTGCTAG	-0.214 z-score
GACGGTTTCCTCTTCCTGACGTGCTAG	0.62 z-score
TTAGGTATCGACTATCCGTTAGTGCTA	3.75 z-score
TTAGATATCGGGTATCGATCAGTGCTA	4.99 z-score
GACGATTTCGGGACTTGAGACGTGCTA	1.44 z-score
TTAGGTCTCGGACTGTGTTAGTGCTAG	-0.226 z-score
TTAGGACTGGACACTAGGTTAGTGCTA	-0.309 z-score
TCATCCTTCTGACATCAAACTGTGCTA	0.698 z-score
TCAGTCTTCAGGTTCTCACTGTGCTAG	0.0351 z-score
GACGGTACCCTTTTCCTGACGTGCTAG	0.0464 z-score
CTAGTAGCCTAAGGCTACCGGTGCTAG	-0.446 z-score
TTAGATTCCAGTTTCAATTAGTGCTAG	3.17 z-score
TTAGGACTGGGGTGTCGGTTAGTGCTA	-0.338 z-score
ATTACTCCCCAACTCGCCTTGTGCTAG	0.111 z-score
GACGAACTGGGGTATCGAAACGTGCTA	1.7 z-score

Study 4
Target: Hepatocyte nuclear factor 3-beta, forkhead domain (FOXA2, Homo sapiens, UniProt Q9Y261, residues 142-269)
Technique: protein-binding microarray
Molecule type: double-stranded DNA, one strand shown
Medium: in vitro
Tested at: not given
Notes: k-mer, scored over probes, only values ≥0.25
Reading: higher = stronger binding
Residues (chain): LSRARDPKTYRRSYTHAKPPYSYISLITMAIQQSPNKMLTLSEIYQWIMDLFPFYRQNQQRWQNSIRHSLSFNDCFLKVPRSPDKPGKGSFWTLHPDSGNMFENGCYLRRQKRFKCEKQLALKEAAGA
Sequence	E-score
ATATACGA	0.269
ATACTGAC	0.343
TTATACAA	0.356
TATAGTGA	0.295
GTTGTTTA	0.362
CAATCACA	0.253
ACATACAA	0.349
ATAAATAT	0.399
ATACTCAA	0.258
ACTTGTAT	0.308
AAATTGGA	0.269
AAATACTG	0.286
TACTACAA	0.321
ATAAGTAA	0.332
CTGGAATA	0.258
ATTTACCA	0.28
CACATGTA	0.389
GGAAATTA	0.253
ACGATAGT	0.265
AGTGTTTG	0.331
GGTCAATA	0.319
CATAAATA	0.338
AATAACAT	0.377
CAATGTTA	0.272

Study 5
Target: Sal-like protein 4, full length isoform B (SALL4, Homo sapiens, UniProt Q9UJQ4-2, residues 1-616)
Technique: universal PBM
Molecule type: double-stranded DNA, one strand shown
Medium: in vitro
Tested at: not given
Notes: 8-mer, flanks averaged, mean of replicates
Reading: higher = stronger binding
Sequence	E-score
CTACTGGC	-0.198
ATCGGAAT	0.167
AGGCGATC	-0.129
TAACTTCA	0.213
AGCCGCAG	-0.318
CTGTACGA	0.0653
ACTTCTCT	0.0979
AGTTTCAC	0.113
GTGCCCCA	-0.252
GTGGGGTA	0.00529
CCCTGTCC	-0.301
CTTACCTA	0.0278
CTTCGATA	0.224
ACCACCAT	-0.16
CATGACCC	-0.0578
TGTCACAA	0.102
GACTGGGC	-0.268
CCAGGGAG	-0.317
AGACGACC	-0.0384
ACGATTCT	0.116
CCCCTCAA	-0.11
CTGATCGC	-0.137

Study 6
Target: Fragile X messenger ribonucleoprotein 1, C-terminal low-complexity region (Fmr1, Mus musculus, UniProt P35922)
Technique: RNA Bind-n-Seq
Molecule type: RNA
Medium: in vitro
Tested at: 200 nM
Notes: whole 134-nt RNA, ends assumed
Added: 150 mM KCl
Relative to: input library
Reading: higher = stronger binding
Constant ends, left off below: GGGAGUUCUACAGUCCGACGAUC … UGGAAUUCUCGGGUGUCAAGG
Sequence	log2 enrichment
UCAUUUUUUUCCCUGCCGGAAUUUUAGCAUUGAUAUGAACCAUGGACAAGUAUAUUCUGCUGCCACAAAGACUGUAAAGUGCUUCAUUUC	0.332
CAAGUCCUGUGCUACACAUCGUAUGUACCGAAUCGGUUUUUGGUGGAAAAAAAGGAAAGUAUUAUGUUACGCCGUUCGGAUCUGCACUUC	-0.638
CCUGUGCUACACAUCGUAUGUACCGAAUCGGGGAAAGGGGUUUUUUUGGGGAAAAAGGGGAAAGUAUUAUGUUACGCCGUUCGGAUCUGC	0.246
UAACUUUAGAGGAGGAUCUGAUGGAUAUGGCAGUGGACGUGGAUUUGGGGAUGGCUAUAAUGGGUAUGGAGGAGGACCUGGCGGUGGCAA	0.0823
GCAGGAAGUAAAAACAAAUGGAAAUGCUUCGGAUAGUGGCAAAAGUGGGGGUUGCUAAGGAAAGGGUGGGAUGGGAGUGGGUAAAGAGUU	0.363
CCUGUGCUACACAUCGUAUGUACCGAAUCGGGGUUUGGGGUUUUUGGGGUUUUUUUGGGGAAAGUAUUAUGUUACGCCGUUCGGAUCUGC	0.571
UCAAGUCCUGUGCUACACAUCGUAUGUACCGAAUCGGAAGGGGAAGGGGAAGGGAAAGUAUUAUGUUACGCCGUUCGGAUCUGCACUUCC	0.794
UCCUCAAGUCCUGUGCUACACAUCGUAUGUACCGAAUCGGGAGGAGGAGGGGAAAGUAUUAUGUUACGCCGUUCGGAUCUGCACUUCCAG	0.296
ACCAAAAAGGUGGGCAUCUUUGGGAAGUGGGGCAAGGGGGGGAUAGGGAGGGGGGUAACACUUUGGGAACAGGUGGUCCCAGGUCGUUUC	0.966
GCAGGAAGUAAAAACAAAUGGAAAUGCUUCGGAUAGUGGCAGGGGUGGGGGUUGCUAAGGUAAGGGUGGGAUGGGAGUGGGUAAAGAGUU	0.281
CACAAAAAACACGCACCCACACAGACACAGAGGGAAGGGGUUGGGAUGGGGACAGGGUGCACAGCAGGGCGGGGUAGGACCCCAGCCCCU	1.33
AAGUCCUGUGCUACACAUCGUAUGUACCGAAUCGGGAAAAGGGAAAAGGGAAAAGGGAAAGUAUUAUGUUACGCCGUUCGGAUCUGCACU	-0.075
CCUGUGCUACACAUCGUAUGUACCGAAUCGGGGAAAAAAGGGAAAAAAGGGGAAAAAAGGAAAGUAUUAUGUUACGCCGUUCGGAUCUGC	-0.317
AAGUCCUGUGCUACACAUCGUAUGUACCGAAUCGGGGUUUGGGGUUUGGGGUUUGGAAAGUAUUAUGUUACGCCGUUCGGAUCUGCACUU	-0.0628

Other studies, line by line
Organism: Saccharomyces cerevisiae
Read-out: binding
Technique: competitive growth deep sequencing
Molecule type: peptide
Strain: cyclin D3-Cln2 fusion strain
Tested at: concentration not given
Notes: tiling library, Cln2 subtracted
Reading: direction not given
Sequence	growth enrichment score
QDYERRLLRQIVIQNE	-0.454
PKNAKRNLSSEFAN	-0.443

For quick reference, copied from above (other studies, line by line):
Sequence	growth enrichment score
QDYERRLLRQIVIQNE	-0.454
PKNAKRNLSSEFAN	-0.443
